Results pooled from the literature.
Every numbered part comes from another study and shows a few of its results, in no order.

Set 1 — method: protein binding microarray; molecule type: double-stranded DNA, one strand shown; medium: in vitro; concentration: not given; baseline: not given; reading: higher = stronger binding; quantity: E-score
Target: Histone acetyltransferase KAT6A, winged helix 2, GST fusion (KAT6A, Homo sapiens, UniProt Q92794, residues 85-181)
Notes: 8-mer, flanks averaged, mean of 2 arrays, mostly near background
Target sequence (chain): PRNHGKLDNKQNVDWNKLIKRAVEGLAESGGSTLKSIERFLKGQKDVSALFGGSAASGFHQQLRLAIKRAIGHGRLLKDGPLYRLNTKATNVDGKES
GACCCCTA: -0.212
CTAGGCAA: -0.0154
AGGTTGAC: -0.0376
GTAGACAC: 0.0578
AGATTTTC: 0.0576

Set 2 — method: universal PBM; molecule type: double-stranded DNA, one strand shown; medium: in vitro; concentration: 600 nM; reading: higher = stronger binding; quantity: E-score
Target: Sal-like protein 4, full length isoform A (SALL4, Homo sapiens, UniProt Q9UJQ4, residues 1-1053)
Chain of UniProt Q9UJQ4 (whole entry, looked up): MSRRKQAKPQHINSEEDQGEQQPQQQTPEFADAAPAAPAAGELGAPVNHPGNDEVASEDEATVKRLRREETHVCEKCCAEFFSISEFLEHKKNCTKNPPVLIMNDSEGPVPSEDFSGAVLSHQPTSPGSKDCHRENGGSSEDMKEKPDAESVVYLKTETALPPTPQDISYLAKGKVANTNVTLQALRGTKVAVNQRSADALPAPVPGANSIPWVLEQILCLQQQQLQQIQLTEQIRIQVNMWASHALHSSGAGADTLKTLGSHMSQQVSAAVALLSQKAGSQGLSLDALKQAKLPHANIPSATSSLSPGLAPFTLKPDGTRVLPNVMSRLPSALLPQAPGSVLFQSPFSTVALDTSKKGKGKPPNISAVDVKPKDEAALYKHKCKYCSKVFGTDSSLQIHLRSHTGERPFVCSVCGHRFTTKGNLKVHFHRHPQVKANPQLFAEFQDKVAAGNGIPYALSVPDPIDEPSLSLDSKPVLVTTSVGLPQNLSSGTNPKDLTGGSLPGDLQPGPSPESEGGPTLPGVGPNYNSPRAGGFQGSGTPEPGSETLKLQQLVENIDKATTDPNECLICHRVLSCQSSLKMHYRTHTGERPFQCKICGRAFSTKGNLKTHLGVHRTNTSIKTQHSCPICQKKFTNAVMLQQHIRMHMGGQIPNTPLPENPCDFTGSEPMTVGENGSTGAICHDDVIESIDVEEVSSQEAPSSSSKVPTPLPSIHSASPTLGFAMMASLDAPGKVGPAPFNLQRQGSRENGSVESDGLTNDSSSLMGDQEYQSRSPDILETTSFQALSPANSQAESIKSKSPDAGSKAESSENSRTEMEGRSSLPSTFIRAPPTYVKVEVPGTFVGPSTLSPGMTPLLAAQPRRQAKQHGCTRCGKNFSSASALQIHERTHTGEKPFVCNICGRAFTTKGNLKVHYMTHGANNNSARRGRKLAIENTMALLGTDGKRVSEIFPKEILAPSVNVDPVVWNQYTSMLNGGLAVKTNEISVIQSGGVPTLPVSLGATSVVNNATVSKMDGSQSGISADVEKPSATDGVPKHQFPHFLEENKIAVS
Notes: 8-mer, flanks averaged, mean of replicates
TGCACAAA: 0.198
AGACTTGC: -0.11
AACAATCA: 0.224
AGACCTTG: -0.0053

Set 3 — method: protein-binding microarray; molecule type: double-stranded DNA, one strand shown; medium: in vitro; concentration: 2540 nM top; notes: 60-bp whole probe; added: salmon DNA 0.4 mg/ml; baseline: random background probes; reading: higher = stronger binding; quantity: fitted relative affinity
Target: Interferon regulatory factor 3, full length, phosphomimetic (IRF3, Homo sapiens, UniProt Q14653, residues 1-427, S386D/S396D/S398D/S402D/T404D/S405D)
Target sequence (chain): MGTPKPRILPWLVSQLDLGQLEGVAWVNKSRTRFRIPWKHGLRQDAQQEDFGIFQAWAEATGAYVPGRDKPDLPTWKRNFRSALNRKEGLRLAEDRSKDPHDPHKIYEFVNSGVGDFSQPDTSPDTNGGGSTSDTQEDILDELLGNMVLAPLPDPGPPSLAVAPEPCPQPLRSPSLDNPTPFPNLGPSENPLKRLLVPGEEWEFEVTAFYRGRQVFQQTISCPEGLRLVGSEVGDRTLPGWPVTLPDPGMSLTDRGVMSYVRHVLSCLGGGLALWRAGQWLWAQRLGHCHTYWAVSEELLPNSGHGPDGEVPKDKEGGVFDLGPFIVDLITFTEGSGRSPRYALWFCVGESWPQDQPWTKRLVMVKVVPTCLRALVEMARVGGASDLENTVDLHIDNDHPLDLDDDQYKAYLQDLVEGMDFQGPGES
GCCTAGCACTTTTATATCTTATCCTATCAGTGCTAGGTCTTGATTCGCTTGACGCTGCTG: 2.24 z-score
GCCTAGCACTTAGATTTCAGTCTGGATTAGTGCTAGGTCTTGATTCGCTTGACGCTGCTG: 1.05 z-score
GCCTAGCACGACGAAGTGAGTCTCGAGACGTGCTAGGTCTTGATTCGCTTGACGCTGCTG: -0.631 z-score
GCCTAGCACGACGGACTGCTTTTCCTGCCGTGCTAGGTCTTGATTCGCTTGACGCTGCTG: -0.173 z-score

Mixed results
PhoQ, residues 284 288 289 292 302 303 ALAMYF — fold induction (PhoP, residues 12 14 15 18 19 AGCRL (Escherichia coli, UniProt P23836); Sort-seq, measured: YFP reporter; E. coli; PhoQ-PhoP variant library, added: 10 µM Mg2+; baseline: high Mg2+ state, higher = stronger signaling): 1.64

Excerpt of the above (set 1):
CTAGGCAA: -0.0154
